Published values from different studies.
Each numbered part is a random draw from the data of one study; scales do not carry over between parts. Substitutions count along the parent as printed.

Series 1 — technique: protein-binding microarray; molecule type: double-stranded DNA, one strand shown; matrix: in vitro; concentration: not given; direction: higher = stronger binding
Target: Transcriptional repressor CTCF (CTCF, Homo sapiens, UniProt P49711, residues 1-727, full length assumed)
UniProt P49711, sequence (whole entry, looked up): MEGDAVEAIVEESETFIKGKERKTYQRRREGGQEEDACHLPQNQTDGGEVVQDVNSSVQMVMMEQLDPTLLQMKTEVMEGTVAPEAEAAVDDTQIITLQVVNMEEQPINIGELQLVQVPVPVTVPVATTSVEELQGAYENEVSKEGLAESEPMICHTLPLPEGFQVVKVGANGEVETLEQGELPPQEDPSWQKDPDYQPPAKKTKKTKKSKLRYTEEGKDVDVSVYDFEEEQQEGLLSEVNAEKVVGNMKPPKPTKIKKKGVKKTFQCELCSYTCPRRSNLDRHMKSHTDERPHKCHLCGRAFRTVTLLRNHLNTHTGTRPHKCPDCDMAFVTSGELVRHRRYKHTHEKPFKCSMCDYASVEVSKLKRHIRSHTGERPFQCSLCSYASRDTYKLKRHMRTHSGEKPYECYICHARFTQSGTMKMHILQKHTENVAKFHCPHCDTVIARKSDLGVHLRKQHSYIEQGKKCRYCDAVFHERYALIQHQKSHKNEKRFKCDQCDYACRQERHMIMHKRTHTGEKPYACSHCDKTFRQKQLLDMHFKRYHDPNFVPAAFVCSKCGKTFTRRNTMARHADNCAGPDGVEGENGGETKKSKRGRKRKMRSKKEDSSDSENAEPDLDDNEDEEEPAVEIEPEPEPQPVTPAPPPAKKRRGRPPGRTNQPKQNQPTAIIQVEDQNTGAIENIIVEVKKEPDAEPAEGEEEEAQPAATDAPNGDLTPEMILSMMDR
Setting: k-mer, scored over probes, only values ≥0.25
With `AACGGATA` the E-score was 0.255.
With `TAACACAA` the E-score was 0.303.
The E-score of `ATTTTACA` is reported as 0.279.
`CATAAAAA` gave an E-score of 0.278.
The E-score of `TAGGTGAA` is reported as 0.325.
For `AGGGGGCG`, the E-score was 0.482.
For `AAAACAAT`, the E-score was 0.255.
For `TAGGAAAA`, the E-score was 0.271.
`AATATTAC` gave an E-score of 0.322.
`AGATATAT` gave an E-score of 0.282.
For `GGATTGTA`, the E-score was 0.266.
With `CGTAATTA` the E-score was 0.306.
`TATAAAAA` has an E-score of 0.351.
`GAAAATTA` has an E-score of 0.287.
The E-score of `AAAAATAA` is reported as 0.259.
The E-score of `AATTTATG` is reported as 0.285.

Series 2 — technique: RNA Bind-n-Seq; molecule type: RNA; matrix: in vitro; concentration: not given; setting: RNA with constant flanks, ends assumed; relative to: input RNA pool; direction: higher = stronger binding
Target: RING finger protein unkempt homolog, zinc fingers 1-6, GST-SBP tag (UNK, Homo sapiens, UniProt Q9C0B0, residues 30-357)
UniProt Q9C0B0, sequence (30-357, looked up): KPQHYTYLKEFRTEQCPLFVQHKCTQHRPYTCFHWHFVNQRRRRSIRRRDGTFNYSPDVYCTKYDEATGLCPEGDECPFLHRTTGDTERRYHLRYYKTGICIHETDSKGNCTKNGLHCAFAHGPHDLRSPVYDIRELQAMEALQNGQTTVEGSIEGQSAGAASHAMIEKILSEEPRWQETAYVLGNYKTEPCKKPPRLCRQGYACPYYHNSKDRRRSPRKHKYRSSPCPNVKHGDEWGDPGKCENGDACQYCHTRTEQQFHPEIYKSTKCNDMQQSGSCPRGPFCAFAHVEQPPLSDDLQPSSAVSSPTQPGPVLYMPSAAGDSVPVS
All sequences stand within: GGGAGUUCUACAGUCCGACGAUC … CAACAGAGGAUUGAGCAUCA
`AUUAAUGCCCUUACUCUAUUUGAGAUUAUCUAUGACAAUCUCAGAGCAGAAGUGUUUAACUACCGAGAAUUCAAUAAAGGUUCCCUUUUUUACUUAUGCACUACAUCUGGAGUGUGUGUU` gave a bound/input enrichment of 0.138 ratio.
`AUCACCAUGUUGGAGGCAGCCUUGGGACUGGAGCGAGCUCACAUGGGAAUGUUCACAGAGCCCGCUAUUUUGUAUUCUAAAUUCAAGCCACAGAAAAUGAGAGAACACCUGGAGUUGUUC` has a bound/input enrichment of 0.222 ratio.
`UUGUCUAGCAAAUAAAAGAUGUUAAUAUAUUCCUGUUACUGGCAUGUGCACGACUAUGUUAUCCGAAGCCACUUUAUCAUUUUCCUGCUUUAAAUAGAAAUGUCUAUUUAUGAAUUCUGC` has a bound/input enrichment of 1.36 ratio.
`CCUGAGAUAGUGCUGUGGUUAUAAUGUCUUUUACUAUUGUAUUAAUGGCUAGCCUGUUACAUCCGACUGGGGGGGGGGUACAGAGGUCUGCUGUUUUGUGAGGCUUUUUGUUUUUUUGGG` gave a bound/input enrichment of 1.46 ratio.
`AAGUCUCAUUCGCCUUUGUCUUGUACUUCUGUGUUCAUUUUUUUUUUUUUUUUUGGCCCGAGUUUCCACUAUCCCAAUCAAAGAAUUACAGUACACAUCCCCAGAAUCCAUAAAUGUGUU` gave a bound/input enrichment of 0.343 ratio.
With `UUAGGUUCACAUACCUGCCUGCUAGUCGGGCAACAUGAAGUAGGACAGUUCUGUUGAUUUUUCCGGGCCAUACUAAAGGGAAUGAGCUGAAACAGACCUCCUGAUACCUUUGCUUAAUUA` the bound/input enrichment was 0.122 ratio.
With `GCCAAGGCCAUUCAGCUGAACAGUAAUAGUGUUCAAGCUCUGCUACUUAAGGGAGCAGCACUCCGGAACAUGGGCAGAGUCCAAGAAGCAAUAAUCCACUUUCGGGAGGCCAUACGGCUC` the bound/input enrichment was 0.125 ratio.
For `AGAAUCUUGGGACUGUUUUACUUAAUUGGUCAUUGAUAGCUUAACAAACAUGGAGAUAAGAUCCGAAAUCUUGACAUCAACAGGUAUUAAGCAGAAAAAACCAUGGCCACGUGUCUCCUG`, the bound/input enrichment was 0.11 ratio.
`AGGGCCUCCAACAGGCAAAUUCAGGGAGGAUAGGUUUCAGGGAAUAUAAAUUUAUUUAAUAUCCGUGGUCUUUAAGUAUAAACUUGAUGUAAUUGGUUUGGGAGGGGGCAGUGAUGAUGA` gave a bound/input enrichment of 0.741 ratio.
For `AAUGAUGUUGAAGUCAAAUGGAUUGAAUACCAGAAUAUGGUGAACUACCUCAUCCAAUGGAUCCGACACCAUGUGACCACAAUGUCUGAGAGAACAUUUCCUAAUAAUCCUGUAGAACUG`, the bound/input enrichment was 0.292 ratio.
For `GUAGCUUCUAGAGAUAAUUUUGAGGAUGAGACUGAAGAUGAUGAUCUGUUUGAAACUGAAUUCCGACAAUAUAAGAGAACAUACUACAUGACGAAGAUGGGCGUCGAUGUAGUAUCUGAU`, the bound/input enrichment was 1.42 ratio.

Series 3 — target: CCNE2, cyclin fold, Cln2 fusion (human); technique: yeast growth competition, sequencing; matrix: yeast; setting: strong parent motif; relative to: not given; direction: higher = stronger binding
Starting sequence: DOT1L docking peptide (human); SEAKRRIVFTITT
`SEAKRRAVFTITT [I7A]`: “normalised enrichment score” 0.26.
For `SEAKRRIVATITT [F9A]`, “normalised enrichment score” read 0.712.
`AEAKRRIVFTITT [S1A]` — result for “normalised enrichment score”: 0.903.
Under “normalised enrichment score”, `SEAKRRIVFTIAT [T12A]` is recorded as 1.04.
`SEAKRRIAFTITT [V8A]`: “normalised enrichment score” 0.552.
Under “normalised enrichment score”, `SEAKRRIVFTITA [T13A]` is recorded as 1.18.

Series 4 — technique: RNA Bind-n-Seq; molecule type: RNA; matrix: in vitro; concentration: 365 nM; relative to: no-protein control; direction: higher = stronger binding
Target: RNA binding protein fox-1 homolog 2, RRM domain, GST-SBP tag (RBFOX2, Homo sapiens, UniProt O43251-10, residues 100-194)
Setting: natural RNA segment, single round, ends assumed
All sequences stand within: GGGAGUUCUACAGUCCGACGAUC … UGGAAUUCUCGGGUGCCAA
Target sequence (chain): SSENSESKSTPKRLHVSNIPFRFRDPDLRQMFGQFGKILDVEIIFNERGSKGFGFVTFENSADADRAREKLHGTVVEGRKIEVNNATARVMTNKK
`GAUUCCACUCUGUGCCCGCCUCUGCCGGGAGGGAGGGAGGCACACAGGUGGAGCUGACCCUCGUCUUUGUGGCAGCAAAACCAGGAUGCCUGGAGCUGUGGCCUGAGGGC` — result for “RBNS enrichment (R)”: 0.406.
`UUCCAGGCCUGCCUGCCGUGGAGUUGACUGGGGGAAUUUUACAGUUUUGCGAUCCUAGGAUGCGUCCCAGACGCUCAGUCAGAAGUGCUGGAGGUGGGGCCUGGGAAGCU`: “RBNS enrichment (R)” 0.567.
`AAAACAUUUGAAAGCAUGUUGUGCAUGUGUGAGAGAGUGGCGUGGCUGGUCUCAGGCUGACACUCGAAGGGUAGUAGAAAUAUCCCUUCUGGCCUAUUGUCUGCUUCGCU` — result for “RBNS enrichment (R)”: 24.2.
`GCACAAUCAGUGUGAAUAAAUUCACUUCAGAAUCUCAAGUCAAGGCCAGGCACGGCGGCUCACGCCUGUAAUCCCAGCACUUUGGGAGGCCGAGACAGGCGGAUCACCUG`: “RBNS enrichment (R)” 0.332.
`UUUCUCGAUUAGGCGUAUGGGUUUUGAAAAAGAGAUUUUUCAGAAGAUUGUCAGCUUCAGUAUUCAUGUUCCAUCGUGUCAUCUGGGUCUGUUAGUGUAGUGACCCUCAG` — result for “RBNS enrichment (R)”: 2.11.
`UUACCUUAAAGUGGAAUCAGAAUGAGGUUCCCAAGCAAGAACUUGCCACCAAGGCCCCAAAGGAUAGGGACGGUCGUAUCCUUAUGAAUCCCACUAAAACUUAGGCUGGG`: “RBNS enrichment (R)” 0.326.
`UAAUCUCUAAGGGGUCUGCUCCCCAGGAACGUUUCUGAACAAUGGGGACUUUGUUGGUAGCCAUUUGGUAGAUGUUCUUUUCUAUUUAUAAGUGACUUUAAACUUUCCCU`: “RBNS enrichment (R)” 0.297.
`UUAGCCAGCUAGUGACGAGUACAACGAGAUAACGCCCAUGUGUUUUGGAACAUUUAUGUAAGAUUGUCAUAUGAAAUGUAUUUGGGAACUACAUUAAACUUUUAACUAAA`: “RBNS enrichment (R)” 1.02.
For `GUAAACCUUGUCUGAGUAGUGUUCCGAGGUCUUGCCGUUCCGGAUCCCUCUGUCUGUUUAUGCCUGGUGUGAGUUCCAUCGGGUGUCUUUAAAUAGUUGCAGAAGGGAUA`, “RBNS enrichment (R)” read 0.507.
`CUCUUCCAAACCACAUGGGAGACAGUUUCCUUCAUGCCCAAGCCUGAGCUCAGAUCCAGCUUGCAACUAAUCCUUCUAUCAUCUAACAUGCCCUACUUGGAAAGAUCUAA` — result for “RBNS enrichment (R)”: 0.859.
`CAAUGUGCAUUUUUUGGAGGUCAUUCAAAUUUUCCCUCUUCUGUGAUUGCUGUAGUUUCUUUCAUAGAAAGUAGCUGAUCUGAUGUAAUCUUUUACCUUUUAAACAACCA`: “RBNS enrichment (R)” 1.53.
`CCUUGCCUACCUCUUUCUAUCUCCCAGCAGCCCUCAGGUAGCAGUUGAUUUAUUUUACACCUCUGCUUAGGCCUCCUGCCUGGAGAUGAGCCAUGCUGUUGUGAGAUUUU`: “RBNS enrichment (R)” 0.408.

Series 5 — technique: protein binding microarray; molecule type: double-stranded DNA, one strand shown; matrix: in vitro; concentration: not given; relative to: not given; direction: higher = stronger binding
Target: Histone acetyltransferase KAT6A, winged helix 2, GST fusion (KAT6A, Homo sapiens, UniProt Q92794, residues 85-181)
Setting: 8-mer, flanks averaged, mean of 2 arrays, mostly near background
Construct (chain): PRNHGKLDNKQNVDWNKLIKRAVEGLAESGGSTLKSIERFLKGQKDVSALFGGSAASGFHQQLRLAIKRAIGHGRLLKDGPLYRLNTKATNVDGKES
`TCGTATCA` gave an E-score of -0.0129.
With `CTCTGCTA` the E-score was 0.0453.
For `ACTCTGGA`, the E-score was -0.0041.
`TCTATCCA` has an E-score of -0.0411.
`CATGTGAG` gave an E-score of -0.121.
With `AAGCTATG` the E-score was 0.00129.
`CGAAATTA` has an E-score of 0.0635.
`CCTGGCAG` has an E-score of 0.077.
`CCCAGTCC` has an E-score of -0.0271.
`CTGCCTTC` has an E-score of 0.0155.
`ACGATAAA` has an E-score of -0.0572.
The E-score of `ACGATCAA` is reported as -0.109.
For `CCAGCTTC`, the E-score was 0.107.
`ACCTCTGA` gave an E-score of -0.0193.
`ATTCGCAA` has an E-score of 0.182.
`GGCTGACA` gave an E-score of 0.0361.
With `AACCTTAC` the E-score was -0.0338.
`CTCGTTGC` has an E-score of 0.171.
`AGCAGCAC` gave an E-score of 0.184.
`TCCACAGA` gave an E-score of -0.0977.
The E-score of `CCCCCATC` is reported as -0.0858.
The E-score of `AAATAAGA` is reported as -0.0433.
The E-score of `CGTCATTC` is reported as 0.0425.
For `ATAGGGAT`, the E-score was -0.0985.
`CCGTCAGC` has an E-score of -0.0308.
